Measurements pooled from the literature.
Each line is one published result; not all experiments were run side by side. Numbers after ± are the reported error. ≈ marks a conversion by molar mass, not a printed value.
Organism: Trypanosoma brucei

| Structure (SMILES) | test | system | setting | scale | measurement | value |
| --- | --- | --- | --- | --- | --- | --- |
| O=S(=O)(NCc1csc(-c2ccccc2)n1)c1ccc2ccccc2c1 | parasite growth |  |  |  | EC50 | 19 µM |
| CN(C(=O)Cc1ccc(Cl)c(Cl)c1)C(CN1CCCC1)c1ccccc1 (stereo in doubt) | parasite growth |  | 72 h |  | EC50 | 0.88 µM |
| C=CC(C)(C)c1c(O)cc2c(c1O)C(=O)CC(c1ccccc1)O2 (stereo not shown) | resazurin viability | multidrug-resistant B48 |  | baseline: B48 over s427 wild type | resistance factor | 1.23 |
| CC(C)=CCC/C(C)=C/CNCCOC1C2CC3CC(C2)CC1C3 (stereo not shown) |  | bloodstream form | 72 h |  | IC50 | 0.26 ± 0.07 µg/mL (≈ 0.784 µM) |
| OC[C@H]1O[C@@H](SSCc2cccc3c(CSS[C@@H]4O[C@H](CO)[C@H](O)[C@H](O)[C@H]4O)cccc23)[C@H](O)[C@@H](O)[C@H]1O | parasite growth, flow cytometry |  | 5 µM, 24 h |  | viability | 91.9% |
| CCn1nc(-c2cccs2)nc2c(=O)n(C)c(=O)nc1-2 | parasite growth, resazurin |  | 73 h |  | EC50 | 1.43 µM |
| CC(C)=CCC/C(C)=C/CC/C(C)=C/CNCCOC1C2CC3CC(C2)CC1C3 (stereo not shown) |  | bloodstream form | 72 h |  | IC50 | 0.75 ± 0.1 µg/mL (≈ 1.88 µM) |
| OC[C@H]1O[C@@H]([Se][Se][C@@H]2O[C@H](CO)[C@@H](O)[C@H](O)[C@H]2O)[C@H](O)[C@@H](O)[C@@H]1O | parasite growth, flow cytometry |  | 5 µM, 24 h |  | viability | 57.1% |
| CC(C)(C)c1ccc(C(=O)Nc2cc(Cl)c(Br)cc2C(=O)O)cc1 | cell growth | bloodstream form | 10 µM |  | inhibition | 6.9 ± 3% |
| O=C(Cc1ccc(Cl)c(Cl)c1)N1CCCCC1CN1CCCC1 (stereo not shown) | parasite growth |  | 72 h |  | EC50 | 9.9 µM |
| OC[C@H]1O[C@@H]([Se]Cc2ccc(C[Se][C@@H]3O[C@H](CO)[C@H](O)[C@H](O)[C@H]3O)cc2)[C@H](O)[C@@H](O)[C@H]1O | parasite growth, flow cytometry |  | 5 µM, 24 h |  | viability | 100% |
| CC(C)(C)N(C(=O)Cc1ccc(Cl)c(Cl)c1)[C@@H]1CCCC[C@H]1N1CCCC1 | parasite growth |  |  |  | EC50 | 11 µM |
| OC[C@H]1O[C@@H](O[C@H]2[C@H](O)[C@@H](O)[C@H](SSCc3ccc(CSS[C@@H]4O[C@H](CO)[C@@H](O[C@@H]5O[C@H](CO)[C@H](O)[C@H](O)[C@H]5O)[C@H](O)[C@H]4O)cc3)O[C@@H]2CO)[C@H](O)[C@@H](O)[C@H]1O | parasite growth, flow cytometry |  | 5 µM, 24 h |  | viability | 93.4% |

Some of these lines once more:
| Structure (SMILES) | test | system | setting | scale | measurement | value |
| --- | --- | --- | --- | --- | --- | --- |
| CN(C(=O)Cc1ccc(Cl)c(Cl)c1)C(CN1CCCC1)c1ccccc1 (stereo in doubt) | parasite growth |  | 72 h |  | EC50 | 0.88 µM |
